# Experimental data pooled from the literature.
# Parts stem from different laboratories: compare values within a part only.

# Sample 1 — method: competition protein-binding microarray; molecule type: double-stranded DNA, one strand shown; medium: in vitro; tested at: 2 µM; added: Pho4 competitor, 0.05 µM; reading: higher = stronger binding; all sequences stand within: … GTCTTGATTCGCTTGACGCTGCTG
# Target: Centromere-binding protein 1, full length, His-tagged (CBF1, Saccharomyces cerevisiae, UniProt P17106, residues 1-351)
# Sequence of UniProt P17106 (whole entry, looked up): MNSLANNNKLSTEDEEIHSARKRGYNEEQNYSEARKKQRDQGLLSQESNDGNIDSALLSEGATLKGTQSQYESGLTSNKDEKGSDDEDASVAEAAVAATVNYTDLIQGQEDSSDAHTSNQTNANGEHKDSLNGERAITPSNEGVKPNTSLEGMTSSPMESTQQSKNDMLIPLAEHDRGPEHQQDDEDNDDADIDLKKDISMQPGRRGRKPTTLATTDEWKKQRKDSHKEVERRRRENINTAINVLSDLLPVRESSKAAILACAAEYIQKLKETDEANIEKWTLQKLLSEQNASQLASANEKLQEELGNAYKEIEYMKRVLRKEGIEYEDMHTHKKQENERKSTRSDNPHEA
# Notes: whole 60-bp probe, lowest competitor level
Strand,fluorescence intensity [a.u.]
TGAGCGCCATTAAAGCGCGTGCTGTCGTACTGGGTG,87.3
CCCTCAAGTTTCTCTTCTGGCGATTTGGGAATTTAC,66.9
TCTCCATGGCTGAGACTTGTGTGTATCTCACAGTGG,59.7
TGCAAGAAAAAATAGGTCGTGACAAATTCGCCCCTA,152
CTAACGAAGGTTTGACCCGTGGGTGACAAGCCAAGT,71.8
CATACCCAACCTTTTCACGTGTAATAAGATATTTGT,885
ACCTAGAAGAAGCCACTCGGGCACTAACTCGCCAGG,86.9
CGTCCTAGCGATTGATCAGTGGGTGCCATGAGGAAG,64.5
CTTTCCCGATCTTTTCACGTGTACTTAGCACATTTG,873
AAAGCGGTAATTTGTCACTTAACTTCACATATCTAT,98.4
CTAACGAAGGTTTGGACCGTGGGTGACAAGCCAAGT,64
CGACATCTATCGCCATTCGTGCGGACATTTCTCGAA,61.5
CTAACGAAGGTTTGCCAAGTGGGTGACAAGCCAAGT,73.3
CATACCCAACCTTTTCACGTGCGATAAGATATTTGT,865
AATGGGAACACCTTACGCGTGAGATGGGCCCACCGC,68.8
TGCGCAACAACTTGTATAGTGGGTGTATGTCTAGAA,74.5
CGAGATATGGCTAGACACATGGCCACAATAATATCT,141
CGGGGTTAAGTTTGCCCCGTGGGTGGCTTGCAGCAG,72.6
CGTCCTAGCGATTGATCGGTGGGTGCCATGAGGAAG,66.5

# Sample 2 — method: RNA Bind-n-Seq; molecule type: RNA; medium: in vitro; tested at: 200 nM; notes: whole 134-nt RNA, ends assumed; added: 150 mM KCl; baseline: input library; reading: higher = stronger binding
# Target: Fragile X messenger ribonucleoprotein 1, C-terminal low-complexity region (Fmr1, Mus musculus, UniProt P35922)
# All sequences stand within: GGGAGUUCUACAGUCCGACGAUC … UGGAAUUCUCGGGUGUCAAGG
Strand,log2 enrichment
UCCUGUGCUACACAUCGUAUGUACCGAAUCAAACCCCCAAACCCCCCCAAAUUUUUAAAAAAGUAUUAUGUUACGCCGUUCGGAUCUGCA,0.0387
UCAAGUCCUGUGCUACACAUCGUAUGUACCGAAUCGGGCCCGGGCCCGGCCCGGGAAAGUAUUAUGUUACGCCGUUCGGAUCUGCACUUC,-0.891
GCUGGAAGUAAAAACAAAUGGAAAUGCUUCGGAUAGUGGCAGGGGUGGGGGUUGCUAAGGAAAGGGUGGGAUGGGAGUGGGUAAAGAGUU,0.21
UCAAGUCCUGUGCUACACAUCGUAUGUACCGAAUCGGUUUGGAAAAAGGUUUGGAAAGUAUUAUGUUACGCCGUUCGGAUCUGCACUUCC,-0.785
GCAGGAAGUAAAAACAAAUGGAAAUGCUUCGGAUAGUGGCAGGGGUGGGGGAUGCUAAGGAAAGGGUGGGAUGGGAGUGGGUAAAGAGUU,0.0368
CCUGUGCUACACAUCGUAUGUACCGAAUCGGGGAAAAAGGGGAAAAAGGGGAAAAAGGGGAAAGUAUUAUGUUACGCCGUUCGGAUCUGC,0.156
ACCAUGCAGGUGGGCAUCUUUGGGAAGUGGGGCAAGGGGGGGAUAGGGAGGGGGGUAACUCUUUGGGAACAGGUGGUCCCAGGUCGUUUC,0.775
ACCAUGCAGGUGGGCAUCUUUGGGAAAAGGGGCAAGGGGGGGAUAGGGAGGGGGGUAACACUUUGGGAACAGGUGGUCCCAGGUCGUUUC,0.889
CACAGACAACACGCACCCACACAGACACAGAGGGAAGGGGUCGGGAUGGGGACAGGGUGCACAGCAGGGCGGGGUAGGACCCCAGCCCCU,1.21
UCAAGUCCUGUGCUACACAUCGUAUGUACCGAAUCGGUUUUUGGAGGUUUUUGGAAAGUAUUAUGUUACGCCGUUCGGAUCUGCACUUCC,-0.418
UAACUUUAGAGGAGGAUCUGAUGGAUAUGGAAGUGGACGUGGAUUUGGGGAUGGCUAUAAUGGGUAUGGAGGAGGACCUGGAGGUGGCAA,0.315
CCUCAAGUCCUGUGCUACACAUCGUAUGUACCGAAUCGGGGUGGUGGGUGGGGAAAGUAUUAUGUUACGCCGUUCGGAUCUGCACUUCCA,1.09
AGUCCUGUGCUACACAUCGUAUGUACCGAAUCGGGAAAAGGGGAAAAGGGGAAAAGGGAAAGUAUUAUGUUACGCCGUUCGGAUCUGCAC,0.0762
CACAGACAACACGCACCCACACCGACACAGAGGGAAGGGGUUGGGAUGGGGACAGGGUGCACAGCAGGGCGGGGUAGGACCCCAGCCCCU,1.36

# Sample 3 — method: protein binding microarray; molecule type: double-stranded DNA, one strand shown; medium: in vitro; tested at: not given; baseline: not given; reading: higher = stronger binding
# Target: Histone acetyltransferase KAT6A, winged helix 2, GST fusion (KAT6A, Homo sapiens, UniProt Q92794, residues 85-181)
# Notes: 8-mer, flanks averaged, mean of 2 arrays, mostly near background
# Target sequence (chain): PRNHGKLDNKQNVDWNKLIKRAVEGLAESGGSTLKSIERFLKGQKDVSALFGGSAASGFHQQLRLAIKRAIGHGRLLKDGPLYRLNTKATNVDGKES
Strand,E-score
AATCCGAG,0.0933
AGATCAAG,0.165
GCATTACA,-0.00225
TATTATCA,-0.0209
AGGAATGA,0.0457
GCTGACAC,0.157
CTTACCCC,-0.223
CTTTCTAA,0.15
CGCGGGAC,0.0741
AGACACAC,-0.0721
ACGTAGCT,-0.0897
CATCCCGC,0.0746
CATAGACC,-0.155
AGCTGTAA,-0.0997
GGCTGGCA,0.0192
CTCAAGGC,0.0916
AAAAAGGA,0.204
AGATTTCC,-0.0284
AAGGCGGC,0.147
CTCCTCGC,0.00899
GGAGACCC,-0.127

# Sample 4 — method: protein-binding microarray; molecule type: double-stranded DNA, one strand shown; medium: in vitro; tested at: 250 nM; notes: 60-bp whole probe; added: salmon DNA 0.4 mg/ml; baseline: random background probes; reading: higher = stronger binding; all sequences stand within: GCCTAGCAC … GTCTTGATTCGCTTGACGCTGCTG
# Target: Interferon regulatory factor 5, full length, phosphomimetic (IRF5, Homo sapiens, UniProt Q13568-2, residues 1-514, K96S/S451D/S453D/S456D/S462D)
Strand,log fluorescence [z-score]
TGTGTTTTCACTTTTCCTACGTGCTAG,4.47
TTAGGTATCGTGTTTCGGTTAGTGCTA,8.28
GACGGTTTCGTGTATCGGGACGTGCTA,4.08
TTAGGTTTCGACTTTCGGTTGGTGCTA,10.4
GACGAACTGAGTAACGAGACGTGCTAG,-0.167
TAAGATATCGGGTTTCGATTAGTGCTA,7.6
GACGAACTGGGGTTTCAAGACGTGCTA,-0.203
AATGACTCTATGAAGTAGTTGTGCTAG,-0.343
TTAGGTATCGGACTGGATTAGTGCTAG,1.54
TATTACCTCATCTTTCCCTGCGTGCTA,1.03
GACGGTCTCGTTATCCTGACGTGCTAG,0.115
CTAACTTTCCAATTGTCCTTGTGCTAG,1.09
GACGATTTCGGGTATCGAGAAGTGCTA,5.29
CACGGACTGGACTATCGGGACGTGCTA,0.71
GACGGTTACGGTATCGGGACGTGCTAG,0.872
CCGCCGCCTGGCTGGGGGATGTGCTAG,-0.755
TTAGATATCAGACTTGATTAGTGCTAG,0.0995
GACGGACTGCTTTTCTTGACGTGCTAG,0.022
GACGTACTGGGGTTTCGGGACGTGCTA,1.05
TTAGCTTCCAGTTTCGATTAGTGCTAG,9.91
CAGATGGAATTAAGAAGATGGTGCTAG,-0.172
TTAGATCTCAGTCTCGAATAGTGCTAG,0.373
TTTTTTTTTTTTGTATTTTTGTGCTAG,1.89
TTGTGTTTGTCCCTATTTAAGTGCTAG,0.396
TTAGGTATCCTTCTCCTTTGGTGCTAG,0.289
